Experimental data gathered from unrelated publications.
Compare with care: the assays were run in different laboratories. Values joined by “and” are separate records of one study, mostly repeats; a detail may differ.
Target: Serine/threonine-protein kinase PAK 3 (PAK3, Homo sapiens, UniProt O75914)
UniProt O75914, sequence (whole entry, unmodified, looked up): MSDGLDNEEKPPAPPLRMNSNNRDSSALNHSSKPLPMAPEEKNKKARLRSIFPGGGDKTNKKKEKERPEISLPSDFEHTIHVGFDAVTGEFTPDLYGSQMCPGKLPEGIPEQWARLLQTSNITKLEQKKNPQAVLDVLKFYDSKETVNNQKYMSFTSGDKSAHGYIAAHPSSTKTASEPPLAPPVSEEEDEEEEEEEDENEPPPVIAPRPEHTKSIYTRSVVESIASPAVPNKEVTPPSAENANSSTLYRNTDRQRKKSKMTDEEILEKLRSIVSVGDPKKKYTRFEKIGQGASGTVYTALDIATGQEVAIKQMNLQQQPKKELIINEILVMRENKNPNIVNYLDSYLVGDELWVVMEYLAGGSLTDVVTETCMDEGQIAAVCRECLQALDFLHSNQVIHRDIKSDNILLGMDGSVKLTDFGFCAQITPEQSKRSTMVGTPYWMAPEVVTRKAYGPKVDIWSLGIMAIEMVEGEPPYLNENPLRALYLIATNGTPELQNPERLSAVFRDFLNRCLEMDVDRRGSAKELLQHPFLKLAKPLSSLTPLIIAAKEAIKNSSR

| Structure (SMILES) | assay | setting | how to read | endpoint | value |
| --- | --- | --- | --- | --- | --- |
| C=CC(=O)N1CCCC(n2c(=O)c3ncccc3n(Cc3ccc(Oc4ccccc4)cc3)c2=O)C1 (stereo not drawn) | cell-free assay, competition with immobilised ligand | 1 µM |  | remaining binding | 100% |
| CCn1cc(C(=O)O)c(=O)c2c(N)c(F)c(NC3CCCCC3)cc21 | kinase activity | 0.1 µM, together with: ATP at Km |  | inhibition | -0.6% |
| COc1cc(Nc2nc(C)cc(-c3cnn4nc(OC)ccc34)n2)cc(C(F)(F)F)c1 | inhibitor | 1 µM | baseline: control | remaining activity | 85% |
| C=CC(=O)Nc1cccc(-c2cnc3[nH]cc(C(=O)NC(C)(C)C)c3n2)c1 | enzyme activity, inhibitor | 0.1 µM |  | inhibition | 5% |
| CNC1C[S+]2CC[S+]3CC[S+](C1)[Ru-4]321([N]=C=S)[n]2c3ccc(OC)cc3c3c4c(c5cc(F)c[n+]1c5c32)C(=O)NC4=O (stereo not drawn) | KinomeScan | 0.1 µM | baseline: untreated | remaining binding | 100% |
| Cc1cnc2nc1Nc1cccc(c1)COC/C=C/COCc1cc(ccc1OCCN1CCOCC1)N2 | binding | 0.1 µM |  | remaining binding | 93% |
| Nc1ncc(-c2cc(-c3cnn(CC(F)(F)F)c3)ncc2F)nc1C(=O)NC1CNCC(F)C1 (stereo not drawn) | enzyme activity | 1 µM | baseline: DMSO control | remaining activity | 95.4% |
| COc1ccc(C(=O)/C=C/c2ccccc2-c2c[nH]c3ccc(C#N)cc23)c(O)c1 | enzyme activity, inhibitor | 20 µM |  | inhibition | 1% |
| Nc1ncc2c(n1)-c1c([nH]c3ccc(C4=CCOCC4)cc13)CCC2 | binding, competition with immobilised ligand | 1 µM |  | remaining binding | 100% |
| CNC(=O)C1CCN(c2cc(C)c(F)cc2NC(=O)c2ccc(-c3cc(O)ccc3C)c(C)c2)CC1 | binding, competition with immobilised ligand | 1 µM |  | remaining binding | 98% |
| Cc1cccc(O[C@H]2CCC[C@@H](C(C)CNCc3ccncc3)C2)c1 (relative stereo) | enzyme activity, inhibitor | 1 µM |  | inhibition | 1% |
| COCC12C(=O)NC3C4(C(OC)CC1O)C1CC5(O)C(OC)C(O)C(OC(C)=O)(C1C5OC(=O)c1ccccc1)C3(O)C(OC)C24 (stereo not drawn) | kinase activity, inhibitor, ProQinase kinase profiling | 25 µM | baseline: control | remaining activity | 107% and 96% |
| C=CC(=O)N1CCc2ccc(-n3c(=O)ccc4cnc5ccc(-c6cnn(C)c6)cc5c43)cc21 | KINOMEscan | 1 µM | baseline: DMSO control | remaining binding | 100% |
| CN1CC[C@@H](COc2cnc(C#N)cc2-c2ccn3nc(NC(=O)C4CC4)cc3c2)C1 | enzyme activity, inhibitor | 1 µM |  | inhibition | 3% |
| NC(=O)[C@@H](O)C[C@H]1CCc2sc3ncnc(O[C@H]4CC[C@H](N5CCOCC5)CC4)c3c21 | enzyme activity, inhibitor | 10 µM |  | inhibition | 3% |

Some of these lines once more:
| Structure (SMILES) | assay | setting | how to read | endpoint | value |
| --- | --- | --- | --- | --- | --- |
| C=CC(=O)N1CCc2ccc(-n3c(=O)ccc4cnc5ccc(-c6cnn(C)c6)cc5c43)cc21 | KINOMEscan | 1 µM | baseline: DMSO control | remaining binding | 100% |
| COc1ccc(C(=O)/C=C/c2ccccc2-c2c[nH]c3ccc(C#N)cc23)c(O)c1 | enzyme activity, inhibitor | 20 µM |  | inhibition | 1% |
